{"data": "Results collected from several papers", "cell line": "MM1.S", "note": "Each line is one published result; not all experiments were run side by side. Several values in a cell are separate wells, animals, samples, runs or records."}
{"SMILES": "CCOC(=O)/C=C/C(=O)N(CC(C)C)NC(=O)[C@H](CC(C)C)NC(=O)[C@H](CC(C)C)NC(=O)OCc1ccccc1", "assay": "MTS", "conditions": "10 µM, 72 h", "endpoint": "viability decrease", "result": "50%"}
{"SMILES": "Cc1cccc(-c2[nH]c(CNc3ccccc3F)nc2-c2ccc3ncnn3c2)n1", "assay": "XTT", "conditions": "1 µM", "endpoint": "viability", "result": "69% and 85% and 60%"}
{"SMILES": "CCn1cc(-c2cc(Cn3ccoc3=N)cc3c2CCN([C@@H](C)c2cc(OC)ccn2)C3=O)c(C(F)(F)F)n1", "assay": "cell growth, inhibitor", "conditions": "120 h", "endpoint": "EC50", "result": "624 nM"}
{"SMILES": "O=C1CCC(=O)N1Cc1cc2nccc(-c3cc(Cl)cc4c3N([C@@H]3CNC5(CCC5)C3)CCC4)c2s1", "assay": "protein induction, item: p53", "endpoint": "EC50", "result": "2.92 ng/mL"}
{"SMILES": "CC(C)(C)NC(=O)C[C@H](NC(=O)C(=O)c1c[nH]c2ccccc12)C(=O)NCc1cccc(B(O)O)c1", "assay": "cell viability, CellTiter-Glo", "conditions": "72 h", "endpoint": "EC10", "result": "10 nM"}
{"SMILES": "Nc1cccc2c1C(=O)N(C1CCC(=O)NC1=O)C2=O (stereo not drawn)", "assay": "XTT", "conditions": "1.6 µM", "endpoint": "viability", "result": "29% and 16% and 31%"}
{"SMILES": "CCn1cc(-c2cc(Cn3ccnc3)cc3c2CCN([C@H](c2cc(OC)ccn2)C2CC2)C3=O)c(C(F)(F)F)n1", "assay": "cell growth, inhibitor", "conditions": "120 h", "endpoint": "EC50", "result": "17700 nM"}
{"SMILES": "CCOC(=O)/C=C/C(=O)N(CC(C)C)NC(=O)[C@H](Cc1ccccc1)NC(=O)[C@H](CC(C)C)NC(=O)[C@H](CCc1ccccc1)NC(=O)OCc1ccccc1", "assay": "MTS", "conditions": "10 µM, 72 h", "endpoint": "viability decrease", "result": "40%"}
{"SMILES": "Cn1cc(-c2cccc(N3CCCC3=O)c2)c2ccccc2c1=O", "assay": "c-MYC protein level, western blot, item: c-MYC", "conditions": "6 h", "endpoint": "IC50", "result": "> 1000 nM"}
{"note": "A few entries again:"}
{"SMILES": "Cn1cc(-c2cccc(N3CCCC3=O)c2)c2ccccc2c1=O", "assay": "c-MYC protein level, western blot, item: c-MYC", "conditions": "6 h", "endpoint": "IC50", "result": "> 1000 nM"}
